Experimental data from different studies.
Compare with care: the assays were run in different laboratories. ± marks the error that the study gave.

| Structure (SMILES) | test | test system | conditions | scale | Tmax |
| --- | --- | --- | --- | --- | --- |
| CN(C)CCCNC(=O)/C(=C/CCCCC(=O)NO)COc1cccc2ccccc12 |  | human | iv, 250 mg/m2, day 1, single dose, mean |  | 0.36 h |
| N#CCC1CCN(c2nc(Nc3ccc(N4CCC(O)CC4)cc3)c3c(=O)[nH]ncc3n2)CC1 | LC-MS/MS | human, plasma | oral, 40 mg once daily, day 15, median |  | 2 h |
| C#C[C@]1(COP(=O)(O)OP(=O)(O)O)O[C@@H](n2cnc3c(N)nc(F)nc32)C[C@@H]1O |  | human, fed, PBMC | oral, 30 mg single |  | 15 h |
| Cc1noc(C)c1-c1cc(C(O)(c2ccccn2)c2ccccn2)c2nc(C3CC3)[nH]c2c1 |  | human patients, fasted, plasma | oral, 9 mg once daily, cycle 1 day 8 |  | 0.72 h |
| NC(=S)NN=Cc1ncccc1N |  | human, plasma | oral, 150 mg, geometric mean |  | 1.5 h |
| COc1nnc2ccc(N3CCC(c4ccc(OCCN5CCN(C)C(=O)[C@H]5C)cc4)CC3)nn12 |  | human, plasma | oral, 40 mg once daily, multiple dose, monotherapy |  | 1.05 h |
| CCOc1cc([C@@H](CS(C)(=O)=O)N2C(=O)c3cccc(NC(C)=O)c3C2=O)ccc1OC |  | healthy humans, plasma | oral, 30 mg |  | 2 h |
| CC(F)(F)c1cc(F)ccc1-c1sc2cc(O)ccc2c1Oc1ccc(/C=C/C(=O)O)cc1 |  | human patients, serum | oral, 400 mg once daily, cycle 1 day 28, fasted, median |  | 2 h |
| COc1ncc(-c2nc3c(n2C(C)C)[C@H](c2ccc(Cl)cc2)N(c2cc(Cl)cn(C)c2=O)C3=O)c(OC)n1 | LC-MS/MS, noncompartmental | human, plasma | oral, 120 mg, C1D8, high-dose, median |  | 3.9 h |
| CN[C@@H](C)C(=O)N[C@H]1CN(S(=O)(=O)c2cccc(S(=O)(=O)N3CC[C@H]4CC[C@@H](C(=O)NC(c5ccccc5)c5ccccc5)N4C(=O)[C@@H](NC(=O)[C@H](C)NC)C3)c2)CC[C@H]2CC[C@@H](C(=O)NC(c3ccccc3)c3ccccc3)N2C1=O |  | human, plasma | intravenous infusion, 20 mg, cycle 1 day 15 |  | 0.47 h |
| CC(C)(C(=O)NC1C2CC3CC1CC(C(N)=O)(C3)C2)N1CCN(c2ccc(C(F)(F)F)cn2)CC1 (stereo not drawn) |  | human, plasma | 2 mg once daily, 5 days, median |  | 2.6 h |
| O=C(O)C[C@H](O)C[C@H](O)/C=C/c1c(C2CC2)nc2ccccc2c1-c1ccc(F)cc1 |  | OATP1B1/1B3 humanized mouse, plasma | oral, 5 mg/kg |  | 0.9 h |
| C[C@@H]1CCO[C@H]2Cn3cc(C(=O)NCc4ccc(F)cc4F)c(=O)c(O)c3C(=O)N12 |  | human, normal renal function, plasma | oral, steady state, fixed-dose combination |  | 5.5 h |
| C=CC(=O)NC1CCN(c2ncc3ncnc(Nc4ccc(Oc5ccc6c(c5)ncn6C)c(C)c4)c3n2)CC1 |  | human, male, plasma | oral, 240 mg single dose, fed, median |  | 4 h |
| COc1c(C)c2c(c(O[C@@H]3O[C@H](C(=O)O)[C@@H](O)[C@H](O)[C@H]3O)c1C/C=C(\C)CCC(=O)O)C(=O)OC2 | refers to: mycophenolic acid | healthy human subjects, plasma | oral, 1 g mycophenolate mofetil, median, with isavuconazole |  | 1 h |
| Cc1cc(-c2nnc(N)nc2-c2ccc(F)cc2)cc(Cl)n1 |  | human patients, plasma | oral, 75 mg capsule, single dose, median |  | 1.5 h |
| CCCn1cc(C)c2c(=O)[nH]c(-c3cc(S(=O)(=O)N4CCN(CC)CC4)ccc3OCC)nc21 |  | human, plasma | oral, 100 mg, median, together with: placebo beverage |  | 0.75 h |
| C[C@H](Oc1ccc(Br)cc1-c1ccon1)C(=O)O | LC-MS/MS, non-compartmental | human, plasma | 600 mg once daily, day 10, multiple ascending dose, median |  | 2.5 h |
| CC1=C(c2cccc(O)c2)[C@H](c2ccc(OCCN3CC(CF)C3)cc2)Oc2ccc(O)cc21 |  | human, plasma | oral, 1400 mg once daily, steady state median |  | 3 h |
| CCn1cc(C(=O)N2CCOCC2)c(=O)c2cc(NC3Cc4ccccc4C3)cnc21 |  | human, fed | oral suspension, 300 mg single dose, median |  | 6 h |
| Cc1cc(C)c(CNC(=O)c2cc(Cl)c3c(c2C)O[C@@](C)([C@H]2CC[C@H](N(C)C)CC2)O3)c(=O)[nH]1 |  | human, NHL patients, plasma | oral, 200 mg/day, cycle 1 day 1, once daily |  | 3.87 h |
| Cc1nc(-c2ccc(OCC(C)C)c(C#N)c2)sc1C(=O)O |  | human, plasma | oral, 40 mg once daily, together with: verinurad 10 mg |  | 1.75 h |
| Cn1cncc1[C@@](N)(c1ccc(Cl)cc1)c1ccc2c(c1)c(-c1cccc(Cl)c1)cc(=O)n2C |  | human, plasma | oral, 300 mg/m^2, range, first dose |  | 1.7 to 24 h |
| COc1cc(C(=O)NC2CCN(C)CC2)c(F)cc1Nc1ncc(C(F)(F)F)c(Oc2cccc3c2C(=O)N(C)C3)n1 |  | human patients, plasma | oral, 25 mg single dose, median |  | 2 h |
| C[C@@H](Oc1ccc(S(C)(=O)=O)cc1C(=O)N1C[C@@H]2C[C@]2(c2cc(C(F)(F)F)on2)C1)C(F)(F)F |  | healthy human volunteers, plasma | oral, 10 mg single dose, fasted and fed states |  | 3.5 to 4 h |
| COc1ccccc1OCC(O)CN1CCN(CC(=O)Nc2c(C)cccc2C)CC1 (stereo not drawn) |  | human | oral, 12 mg/kg/day |  | 1 h |
| CC(=O)N(C)[C@H]1CCN(C(=O)c2cnc3c(c2)C[C@](C)(c2ccc(F)cc2)N3)C1 |  | human, male, plasma | oral, dose not given, median |  | ~1 h |

| Structure (SMILES) | test | test system | conditions | scale | Tmax |
| --- | --- | --- | --- | --- | --- |
| Cc1cn(C(=O)c2c(-c3c(Cl)cc(Cl)cc3Cl)noc2C(C)(C)F)c2cccc(/C=C/C(=O)O)c12 |  | human patients | 125 mg bid, cycle 8 day 1 |  | 2.03 h |
| C#C[C@]1(CO)O[C@@H](n2cnc3c(N)nc(F)nc32)C[C@@H]1O |  | human, plasma | oral, 100 mg, single dose, median |  | 0.5 h |
| COc1ncnn2ccc(-c3cnc4nc(C)n(Cc5nnc([C@@H](C)F)o5)c4c3)c12 |  | human, plasma | oral, 105 mg, cycle 1 day 1 |  | 3 h |
| COc1cc(C(=O)NC2CCN(C)CC2)c(F)cc1Nc1ncc(C(F)(F)F)c(Oc2cccc3c2C(=O)N(C)C3)n1 |  | human, Taiwanese, plasma | oral, 200 mg single dose, median |  | 2 h |
| Cc1ncnc2c1ccn2[C@@H]1C[C@H](Oc2cc(C(F)F)c(F)c3c2CNCC3)[C@@H](O)[C@H]1O |  | human | oral, 0.5 mg twice daily |  | 5.6 h |
| Fc1ccc([C@@H]2CCNC[C@H]2COc2ccc3c(c2)OCO3)cc1 |  | human, CYP2D6 intermediate metabolizers | oral, 20 mg, steady state, geometric mean |  | 4.4 h |
| C[C@H](NC(=O)/C(C#N)=C/c1cccc(Br)n1)c1ccccc1 | LC-MS/MS | human, plasma | oral, 4 mg/kg, cycle 1 day 1 |  | 0.5 h |
| CN(CC#N)C(=O)C[C@H](Nc1nc2ccccc2[nH]1)c1cccc(C(F)(F)F)c1 |  | human | intravenous infusion, 1 mg/kg, 5 mg/mL formulation |  | 0.41 ± 0.08 h |
| CO[C@H]1/C=C/O[C@@]2(C)Oc3c(C)c(O)c4c(O)c(c(/C=N/N5CCN(C)CC5)c(O)c4c3C2=O)NC(=O)/C(C)=C\C=C\[C@H](C)[C@H](O)[C@@H](C)[C@@H](O)[C@@H](C)[C@H](OC(C)=O)[C@@H]1C |  | healthy human subjects, plasma | oral, compound alone once daily |  | 3.5 h |
| Cn1ncnc1[C@H]1c2n[nH]c(=O)c3cc(F)cc(c23)N[C@@H]1c1ccc(F)cc1 |  | human patients, plasma | oral, 600 µg/m2 twice daily, day 1, monotherapy, dose level DL4, median |  | 2 h |
| C=CC(=O)N(C)CCOc1c(N)ncnc1-c1cc(F)cc(NC(=O)c2ccc(C3CC3)cc2F)c1C |  | human, fasted, whole blood | oral, 60 mg single dose, food effect study, median |  | 0.77 h |
| Cc1ccc(NC(=O)c2ccc(CN3CCN(C)CC3)cc2)cc1Nc1nccc(-c2cncc(-c3oncc3C)c2)n1 |  | healthy human volunteers, plasma | oral, 200 mg/day, multiple ascending dose, steady state |  | 5 ± 1.7 h |
| N#Cc1cc(NC(=O)[C@H]2c3ccccc3C(=O)N(CC(F)(F)F)[C@@H]2c2cccnc2)ccc1F |  | human, plasma | oral, 75 mg, median |  | 1.6 h |
| Cc1cc(C)c(CNC(=O)c2cc(Cl)c3c(c2C)O[C@@](C)([C@H]2CC[C@H](N(C)C)CC2)O3)c(=O)[nH]1 | refers to: total radioactivity | human, male, plasma | oral, 200 mg, [14C]-labelled, median |  | 2.5 h |
| Cn1c(=O)oc2ccc(-c3ccc(C[C@@H](C#N)NC(=O)[C@@H]4CNCCCO4)cc3)cc21 |  | human, mild renal impairment, plasma | oral, 25 mg single dose, median |  | 1 h |
| Cn1nnc2c(C(N)=O)ncn2c1=O |  | human patients, plasma | oral, 40 mg/m2, day 5, dose level DL5, median, together with: talazoparib 600 µg/m2 |  | 1 h |
| CC(=O)N1CCC(Nc2cc(C(=O)NC[C@H](O)CN3CCc4ccccc4C3)ncn2)CC1 |  | human | oral, 400 mg, median |  | 2 h |
| Cc1cc(-c2nccc3c2ccn3CC(=O)Nc2ccc(-c3cnccn3)cn2)ccn1 |  | human, plasma | oral, 20 mg once daily, day 16, median |  | 1 h |
| NCCCS(=O)(=O)O |  | human, plasma | oral, 340 mg once daily, day 14, capsule, fasted, dosed days 8-14 |  | 1.53 h |
| C[C@H]1[C@@H](O)O[C@@H]2O[C@@]3(C)CC[C@H]4[C@H](C)CC[C@@H]1[C@@]24OO3 |  | human, both sexes, plasma | oral, dose not given, non-fixed combination |  | 1.04 h |
| COC(=O)N[C@@H](C)CNc1nccc(-c2cn(C(C)C)nc2-c2cc(Cl)cc(NS(C)(=O)=O)c2F)n1 |  | human, plasma | oral, 50 mg, together with: posaconazole 400 mg twice daily | median | 1.49 h |
| CCCCCCCOc1ccc(CCC(N)(CO)CO)cc1C(F)(F)F.Cl |  | healthy human males, plasma | oral, 0.5 mg, day 1, median |  | 12 h |
| CCNCCCNC/C=C\CNCCCNCC | LC-MS/MS | human cancer patients, plasma | intravenous infusion 60 min, 100 mg, median, cycle 1 |  | 0.75 h |
| NC(CO)(CO)CCc1ccc(Sc2cccc(OCc3ccccc3)c2)cc1Cl |  | human, fed, whole blood | oral, 3 mg, median, alone |  | 4 h |
| Cc1cc(Nc2cc3ncccc3c(N[C@@H]3C[C@H]4CC[C@@H](C3)N4CCC#N)n2)n[nH]1 |  | human, plasma | 10 mg single dose, median |  | 0.51 h |
| CC1(COc2ccc3c(c2)ncn3-c2ccc3cccc(N4CCC(N)CC4)c3n2)COC1 |  | human patients, recurrent/progressive HGG or DIPG, serum | oral, 100 mg/m^2, day 28, median |  | 1.5 h |
| C[C@H](O)C(=O)C1=Nc2c(nc(N)[nH]c2=O)NC1 |  | human | 20 mg/kg, compound alone |  | 5 h |

Some of these lines once more:
| Structure (SMILES) | test | test system | conditions | scale | Tmax |
| --- | --- | --- | --- | --- | --- |
| CC(=O)N(C)[C@H]1CCN(C(=O)c2cnc3c(c2)C[C@](C)(c2ccc(F)cc2)N3)C1 |  | human, male, plasma | oral, dose not given, median |  | ~1 h |
| Cn1ncnc1[C@H]1c2n[nH]c(=O)c3cc(F)cc(c23)N[C@@H]1c1ccc(F)cc1 |  | human patients, plasma | oral, 600 µg/m2 twice daily, day 1, monotherapy, dose level DL4, median |  | 2 h |
| NC(=S)NN=Cc1ncccc1N |  | human, plasma | oral, 150 mg, geometric mean |  | 1.5 h |
| NCCCS(=O)(=O)O |  | human, plasma | oral, 340 mg once daily, day 14, capsule, fasted, dosed days 8-14 |  | 1.53 h |
| Cc1cc(C)c(CNC(=O)c2cc(Cl)c3c(c2C)O[C@@](C)([C@H]2CC[C@H](N(C)C)CC2)O3)c(=O)[nH]1 |  | human, NHL patients, plasma | oral, 200 mg/day, cycle 1 day 1, once daily |  | 3.87 h |
| N#Cc1cc(NC(=O)[C@H]2c3ccccc3C(=O)N(CC(F)(F)F)[C@@H]2c2cccnc2)ccc1F |  | human, plasma | oral, 75 mg, median |  | 1.6 h |
